Published values from different studies.
A part holds a random share of what one study measured. “And” joins repeats or separate records; there may be more than shown.
Sequence of UniProt P00519 (whole entry, unmodified, looked up): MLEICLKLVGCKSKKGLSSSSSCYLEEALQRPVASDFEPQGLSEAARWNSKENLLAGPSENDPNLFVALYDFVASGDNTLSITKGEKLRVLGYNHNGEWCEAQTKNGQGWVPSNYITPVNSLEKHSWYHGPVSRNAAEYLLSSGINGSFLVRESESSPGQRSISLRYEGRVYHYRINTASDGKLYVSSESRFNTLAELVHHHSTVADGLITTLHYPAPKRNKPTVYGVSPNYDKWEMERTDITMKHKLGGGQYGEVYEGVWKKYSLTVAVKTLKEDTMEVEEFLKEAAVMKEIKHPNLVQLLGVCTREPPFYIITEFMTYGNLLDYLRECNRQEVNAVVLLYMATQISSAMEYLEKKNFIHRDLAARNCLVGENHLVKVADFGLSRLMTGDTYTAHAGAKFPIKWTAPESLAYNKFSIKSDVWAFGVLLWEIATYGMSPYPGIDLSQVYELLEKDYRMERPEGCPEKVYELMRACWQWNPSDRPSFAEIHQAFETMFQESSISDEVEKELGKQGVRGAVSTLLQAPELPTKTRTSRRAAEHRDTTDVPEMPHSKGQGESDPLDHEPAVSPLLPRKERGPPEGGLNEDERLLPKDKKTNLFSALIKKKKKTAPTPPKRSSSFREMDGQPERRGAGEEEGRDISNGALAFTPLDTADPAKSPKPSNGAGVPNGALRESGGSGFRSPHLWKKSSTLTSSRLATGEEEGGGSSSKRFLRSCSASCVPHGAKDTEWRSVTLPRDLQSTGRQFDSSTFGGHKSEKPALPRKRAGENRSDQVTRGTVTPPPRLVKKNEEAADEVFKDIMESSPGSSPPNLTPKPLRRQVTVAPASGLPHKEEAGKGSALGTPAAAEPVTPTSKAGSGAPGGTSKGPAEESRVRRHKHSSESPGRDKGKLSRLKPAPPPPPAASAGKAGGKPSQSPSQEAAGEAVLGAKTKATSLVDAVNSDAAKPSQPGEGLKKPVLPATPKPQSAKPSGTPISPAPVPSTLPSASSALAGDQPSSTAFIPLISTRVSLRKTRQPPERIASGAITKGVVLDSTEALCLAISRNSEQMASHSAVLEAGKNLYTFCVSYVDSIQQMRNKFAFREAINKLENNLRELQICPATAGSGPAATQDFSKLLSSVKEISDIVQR
Sequence of UniProt P42336 (whole entry, unmodified, looked up): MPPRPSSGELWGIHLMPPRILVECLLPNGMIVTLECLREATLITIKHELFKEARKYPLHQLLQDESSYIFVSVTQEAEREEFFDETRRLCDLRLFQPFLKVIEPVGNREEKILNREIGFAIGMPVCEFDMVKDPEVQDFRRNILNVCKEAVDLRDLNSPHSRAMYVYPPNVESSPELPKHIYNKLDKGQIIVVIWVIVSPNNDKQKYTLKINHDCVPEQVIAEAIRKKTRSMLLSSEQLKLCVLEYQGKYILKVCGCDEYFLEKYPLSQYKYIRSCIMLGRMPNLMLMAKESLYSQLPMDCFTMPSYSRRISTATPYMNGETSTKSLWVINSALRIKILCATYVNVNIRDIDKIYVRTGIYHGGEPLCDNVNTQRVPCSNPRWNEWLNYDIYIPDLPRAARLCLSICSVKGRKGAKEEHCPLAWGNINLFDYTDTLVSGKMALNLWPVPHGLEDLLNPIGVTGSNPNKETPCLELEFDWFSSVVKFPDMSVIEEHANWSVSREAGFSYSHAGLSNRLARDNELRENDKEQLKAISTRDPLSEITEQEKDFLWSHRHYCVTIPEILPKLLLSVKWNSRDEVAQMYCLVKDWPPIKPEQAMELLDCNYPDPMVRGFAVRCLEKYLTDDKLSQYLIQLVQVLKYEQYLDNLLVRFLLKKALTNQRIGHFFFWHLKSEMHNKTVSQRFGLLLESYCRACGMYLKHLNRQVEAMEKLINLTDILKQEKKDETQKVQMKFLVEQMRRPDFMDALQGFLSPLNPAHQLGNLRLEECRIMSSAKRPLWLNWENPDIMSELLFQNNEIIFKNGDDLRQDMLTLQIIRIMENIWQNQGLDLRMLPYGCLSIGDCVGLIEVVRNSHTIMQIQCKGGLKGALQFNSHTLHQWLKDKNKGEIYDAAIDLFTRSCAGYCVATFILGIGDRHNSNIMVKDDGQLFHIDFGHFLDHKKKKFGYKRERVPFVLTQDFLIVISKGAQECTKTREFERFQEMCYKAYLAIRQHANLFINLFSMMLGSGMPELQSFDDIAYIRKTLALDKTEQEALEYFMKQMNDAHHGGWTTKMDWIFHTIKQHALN
Sequence of UniProt P11802 (whole entry, looked up): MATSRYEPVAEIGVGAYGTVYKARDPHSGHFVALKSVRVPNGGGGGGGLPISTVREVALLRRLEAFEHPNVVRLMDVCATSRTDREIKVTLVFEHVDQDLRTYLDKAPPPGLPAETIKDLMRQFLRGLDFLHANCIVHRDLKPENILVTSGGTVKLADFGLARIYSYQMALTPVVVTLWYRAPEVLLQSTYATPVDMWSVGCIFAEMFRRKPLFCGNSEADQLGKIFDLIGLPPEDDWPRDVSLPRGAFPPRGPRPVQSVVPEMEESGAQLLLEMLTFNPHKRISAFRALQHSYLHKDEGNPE
Sequence of UniProt P53671 (whole entry, looked up): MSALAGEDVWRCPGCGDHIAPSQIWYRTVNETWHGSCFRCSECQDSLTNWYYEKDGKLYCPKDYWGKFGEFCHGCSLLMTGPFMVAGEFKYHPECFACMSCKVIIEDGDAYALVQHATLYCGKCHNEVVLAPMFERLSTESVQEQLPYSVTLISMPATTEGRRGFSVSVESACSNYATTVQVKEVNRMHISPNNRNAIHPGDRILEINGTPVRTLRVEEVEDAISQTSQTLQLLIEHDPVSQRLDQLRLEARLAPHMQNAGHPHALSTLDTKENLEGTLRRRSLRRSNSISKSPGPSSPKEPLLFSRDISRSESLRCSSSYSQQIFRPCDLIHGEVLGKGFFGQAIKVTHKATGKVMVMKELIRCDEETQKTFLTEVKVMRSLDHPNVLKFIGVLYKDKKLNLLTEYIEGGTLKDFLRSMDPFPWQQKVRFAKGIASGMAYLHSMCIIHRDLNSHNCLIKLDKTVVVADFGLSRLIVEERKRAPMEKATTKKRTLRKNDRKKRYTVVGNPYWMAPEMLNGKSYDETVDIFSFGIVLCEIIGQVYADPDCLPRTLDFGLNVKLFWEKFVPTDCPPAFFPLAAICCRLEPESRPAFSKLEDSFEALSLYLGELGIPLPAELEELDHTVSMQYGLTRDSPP
Sequence of UniProt Q13555 (whole entry, looked up): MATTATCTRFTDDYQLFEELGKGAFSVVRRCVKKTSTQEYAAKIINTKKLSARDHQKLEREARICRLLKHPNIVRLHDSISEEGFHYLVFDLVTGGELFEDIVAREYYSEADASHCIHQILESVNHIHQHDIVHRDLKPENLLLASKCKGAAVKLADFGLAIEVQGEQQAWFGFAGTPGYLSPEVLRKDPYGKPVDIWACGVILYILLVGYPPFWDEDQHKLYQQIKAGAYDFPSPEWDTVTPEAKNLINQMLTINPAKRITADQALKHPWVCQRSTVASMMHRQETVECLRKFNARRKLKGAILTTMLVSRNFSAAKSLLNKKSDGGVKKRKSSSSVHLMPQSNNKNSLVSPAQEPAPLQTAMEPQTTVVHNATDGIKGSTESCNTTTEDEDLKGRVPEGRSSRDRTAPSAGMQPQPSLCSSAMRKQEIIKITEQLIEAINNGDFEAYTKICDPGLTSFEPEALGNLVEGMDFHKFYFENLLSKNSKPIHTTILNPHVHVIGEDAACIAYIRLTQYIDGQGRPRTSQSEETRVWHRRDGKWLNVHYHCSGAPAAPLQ
Sequence of UniProt Q96RR4 (whole entry, looked up): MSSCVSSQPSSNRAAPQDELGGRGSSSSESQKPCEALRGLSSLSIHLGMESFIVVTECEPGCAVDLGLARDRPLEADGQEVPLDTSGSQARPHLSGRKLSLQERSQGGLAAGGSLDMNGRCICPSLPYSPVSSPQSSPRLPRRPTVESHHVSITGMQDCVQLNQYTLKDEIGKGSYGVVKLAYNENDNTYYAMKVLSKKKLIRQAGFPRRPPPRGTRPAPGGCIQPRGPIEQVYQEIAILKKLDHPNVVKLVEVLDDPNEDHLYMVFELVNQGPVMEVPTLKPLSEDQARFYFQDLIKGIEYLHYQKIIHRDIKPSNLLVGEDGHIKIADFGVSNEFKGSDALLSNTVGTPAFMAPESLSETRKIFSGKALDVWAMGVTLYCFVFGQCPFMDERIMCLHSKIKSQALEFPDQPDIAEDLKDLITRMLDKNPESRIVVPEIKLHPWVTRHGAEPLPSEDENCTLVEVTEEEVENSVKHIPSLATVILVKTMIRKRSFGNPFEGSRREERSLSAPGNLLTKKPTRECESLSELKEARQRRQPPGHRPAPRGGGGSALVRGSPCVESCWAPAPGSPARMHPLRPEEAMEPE
Sequence of UniProt Q86UX6 (whole entry, looked up): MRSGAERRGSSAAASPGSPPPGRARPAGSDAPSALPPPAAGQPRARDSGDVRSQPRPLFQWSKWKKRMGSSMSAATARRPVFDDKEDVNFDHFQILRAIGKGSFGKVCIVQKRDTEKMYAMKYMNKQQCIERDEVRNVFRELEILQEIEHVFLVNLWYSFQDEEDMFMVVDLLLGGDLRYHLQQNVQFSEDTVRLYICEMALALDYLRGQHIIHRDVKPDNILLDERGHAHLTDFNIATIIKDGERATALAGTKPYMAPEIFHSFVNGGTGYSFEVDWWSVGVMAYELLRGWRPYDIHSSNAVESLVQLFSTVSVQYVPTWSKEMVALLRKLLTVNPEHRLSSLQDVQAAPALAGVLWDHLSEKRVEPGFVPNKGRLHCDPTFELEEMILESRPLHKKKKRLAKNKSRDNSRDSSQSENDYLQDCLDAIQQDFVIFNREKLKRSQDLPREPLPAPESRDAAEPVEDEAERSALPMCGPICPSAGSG

Study 1
Compound: O=C1NCCc2[nH]c(-c3ccncc3)cc21
Cell line: HH
Method: CCK-8
setting	viability
1000 nM	39.9% and 29.5% and 46.1%
10000 nM	0%
1 nM	94.5% and 102% and 98.7%
100 nM	87.6% and 92.6% and 89.5%

Study 2
Structure (SMILES): COc1ccc2[nH]c3c4[nH]c5ccc(OC)cc5c4c4c(c3c2c1)C(=O)NC4=O
Effect on: binding
Concentration: 1 µM
target	assay	remaining binding [%]
Phosphatidylinositol 4,5-bisphosphate 3-kinase catalytic subunit alpha isoform (PIK3CA, Homo sapiens, UniProt P42336, M1043I)	–	95
Tyrosine-protein kinase Mer (MERTK, Homo sapiens, UniProt Q12866)	competition with immobilised ligand	19
Ephrin type-B receptor 6 (EPHB6, Homo sapiens, UniProt O15197)	competition with immobilised ligand	7.3
Tyrosine-protein kinase ABL1, phosphorylated (ABL1, Homo sapiens, UniProt P00519)	competition with immobilised ligand	57
Cytoplasmic tyrosine-protein kinase BMX (BMX, Homo sapiens, UniProt P51813)	competition with immobilised ligand	99
Fibroblast growth factor receptor 3 (FGFR3, Homo sapiens, UniProt P22607, G697C)	–	100
Tyrosine-protein kinase Fyn (FYN, Homo sapiens, UniProt P06241)	competition with immobilised ligand	84
Serine/threonine-protein kinase WNK3 (WNK3, Homo sapiens, UniProt Q9BYP7)	–	92
Insulin-like growth factor 1 receptor (IGF1R, Homo sapiens, UniProt P08069)	–	97
Calcium/calmodulin-dependent protein kinase type II subunit gamma (CAMK2G, Homo sapiens, UniProt Q13555)	–	80
Phosphatidylinositol 4,5-bisphosphate 3-kinase catalytic subunit alpha isoform (PIK3CA, Homo sapiens, UniProt P42336, I800L)	–	93
Homeodomain-interacting protein kinase 3 (HIPK3, Homo sapiens, UniProt Q9H422)	competition with immobilised ligand	44

Study 3
SMILES: COc1cc(-c2cn(C3CCc4ccccc4N(CC(F)(F)F)C3=O)nn2)ccc1-n1ccc(C)n1 (stereo not shown)
Effect on: cell-free assay
Method: competition with immobilised ligand
Concentration: 1 µM
target	remaining binding [%]
Non-receptor tyrosine-protein kinase TYK2, JH1 (TYK2, Homo sapiens, UniProt P29597)	100
Serine/threonine-protein kinase TAO3 (TAOK3, Homo sapiens, UniProt Q9H2K8)	72
Wee1-like protein kinase (WEE1, Homo sapiens, UniProt P30291)	100
Tyrosine-protein kinase ABL1, non-phosphorylated (ABL1, Homo sapiens, UniProt P00519, F317L)	64
Ephrin type-A receptor 7 (EPHA7, Homo sapiens, UniProt Q15375)	100
LIM domain kinase 2 (LIMK2, Homo sapiens, UniProt P53671)	100
Dual specificity tyrosine-phosphorylation-regulated kinase 1B (DYRK1B, Homo sapiens, UniProt Q9Y463)	100
Serine/threonine-protein kinase D3 (PRKD3, Homo sapiens, UniProt O94806)	100
Ephrin type-A receptor 8 (EPHA8, Homo sapiens, UniProt P29322)	100
Receptor-type tyrosine-protein kinase FLT3, autoinhibited (FLT3, Homo sapiens, UniProt P36888)	89
Serine/threonine-protein kinase 32C (STK32C, Homo sapiens, UniProt Q86UX6)	84
Tyrosine-protein kinase HCK (HCK, Homo sapiens, UniProt P08631)	100
Serine/threonine-protein kinase 36 (STK36, Homo sapiens, UniProt Q9NRP7)	79
Mitogen-activated protein kinase kinase kinase 6 (MAP3K6, Homo sapiens, UniProt O95382)	53
Serine/threonine-protein kinase PLK1 (PLK1, Homo sapiens, UniProt P53350)	84
Mitogen-activated protein kinase kinase kinase kinase 2 (MAP4K2, Homo sapiens, UniProt Q12851)	80
Mitogen-activated protein kinase kinase kinase 3 (MAP3K3, Homo sapiens, UniProt Q99759)	88
Activin receptor type-1B (ACVR1B, Homo sapiens, UniProt P36896)	83
Serine/threonine-protein kinase STK11 (STK11, Homo sapiens, UniProt Q15831)	100
Serine/threonine-protein kinase haspin (HASPIN, Homo sapiens, UniProt Q8TF76)	83
Serine/threonine-protein kinase MRCK beta (CDC42BPB, Homo sapiens, UniProt Q9Y5S2)	100
Bone morphogenetic protein receptor type-1B (BMPR1B, Homo sapiens, UniProt O00238)	100
Serine/threonine-protein kinase Nek5 (NEK5, Homo sapiens, UniProt Q6P3R8)	100
Ribosomal protein S6 kinase alpha-6, C-terminal kinase domain (RPS6KA6, Homo sapiens, UniProt Q9UK32)	91
Mitogen-activated protein kinase kinase kinase 19 (MAP3K19, Homo sapiens, UniProt Q56UN5)	95

Study 4
SMILES: CN([C@@H](Cc1ccc(OS(=O)(=O)c2cccc3cnccc23)cc1)C(=O)N1CCN(c2ccccc2)CC1)S(=O)(=O)c1cccc2cnccc12
Effect on: enzyme activity
Action: inhibitor
Concentration: 0.5 µM
Reference: control
target	remaining activity [%]
Protein kinase C alpha type (PRKCA, Homo sapiens, UniProt P17252)	105
Protein kinase C beta type, isoform beta-I (PRKCB, Homo sapiens, UniProt P05771)	95.9
Cyclin-dependent kinase 4, with cyclin D1 (CDK4, Homo sapiens, UniProt P11802)	95.3
Mitogen-activated protein kinase 9 (MAPK9, Homo sapiens, UniProt P45984)	85.6
Serine/threonine-protein kinase Chk2 (CHEK2, Homo sapiens, UniProt O96017)	101
Cyclin-dependent kinase 5, with p25 (CDK5, Homo sapiens, UniProt Q00535)	93.5
Calcium/calmodulin-dependent protein kinase kinase 2 (CAMKK2, Homo sapiens, UniProt Q96RR4)	84.2
Serine/threonine-protein kinase OSR1 (OXSR1, Homo sapiens, UniProt O95747)	101
Serine/threonine-protein kinase 10 (STK10, Homo sapiens, UniProt O94804)	96.3
Inhibitor of nuclear factor kappa-B kinase subunit epsilon (IKBKE, Homo sapiens, UniProt Q14164)	92.7
TGF-beta receptor type-2 (TGFBR2, Homo sapiens, UniProt P37173)	101
